Measurements collected from several papers.
Compare with care: the assays were run in different laboratories. Values joined by “and” are separate records of one study, mostly repeats; a detail may differ. Numbers after ± are the reported error.
DRD4: D(4) dopamine receptor (DRD4, Homo sapiens, UniProt P21917)
AMY2: Pancreatic alpha-amylase (AMY2, Sus scrofa, UniProt P00690)
Sequence of UniProt P00690 (whole entry, looked up): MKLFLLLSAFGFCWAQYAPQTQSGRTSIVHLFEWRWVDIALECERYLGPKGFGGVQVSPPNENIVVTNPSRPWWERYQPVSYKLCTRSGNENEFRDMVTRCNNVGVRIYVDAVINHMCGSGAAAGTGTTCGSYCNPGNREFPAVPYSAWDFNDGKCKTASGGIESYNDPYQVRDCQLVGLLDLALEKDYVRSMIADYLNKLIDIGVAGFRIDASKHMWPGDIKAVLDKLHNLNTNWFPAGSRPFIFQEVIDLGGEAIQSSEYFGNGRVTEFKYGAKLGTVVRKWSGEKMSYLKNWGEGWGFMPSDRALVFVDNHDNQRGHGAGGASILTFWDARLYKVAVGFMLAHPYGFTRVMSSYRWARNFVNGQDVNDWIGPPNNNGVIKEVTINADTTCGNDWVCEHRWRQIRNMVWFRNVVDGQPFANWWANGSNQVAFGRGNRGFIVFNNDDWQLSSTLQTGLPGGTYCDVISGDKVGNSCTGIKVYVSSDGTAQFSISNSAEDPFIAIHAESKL
HDAC11: Histone deacetylase 11 (HDAC11, Homo sapiens, UniProt Q96DB2)
Sequence of UniProt Q96DB2 (whole entry, looked up): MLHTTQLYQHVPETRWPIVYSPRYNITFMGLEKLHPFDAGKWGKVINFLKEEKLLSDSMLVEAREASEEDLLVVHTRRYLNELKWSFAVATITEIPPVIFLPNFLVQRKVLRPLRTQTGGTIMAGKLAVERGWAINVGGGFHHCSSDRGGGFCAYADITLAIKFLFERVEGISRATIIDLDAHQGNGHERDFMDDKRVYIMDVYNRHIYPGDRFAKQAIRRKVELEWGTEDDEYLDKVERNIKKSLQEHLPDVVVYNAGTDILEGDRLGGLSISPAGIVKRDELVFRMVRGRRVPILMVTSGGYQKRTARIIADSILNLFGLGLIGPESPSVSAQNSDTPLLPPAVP
HTR5A: 5-hydroxytryptamine receptor 5A (HTR5A, Homo sapiens, UniProt P47898)
Sequence of UniProt P47898 (whole entry, looked up): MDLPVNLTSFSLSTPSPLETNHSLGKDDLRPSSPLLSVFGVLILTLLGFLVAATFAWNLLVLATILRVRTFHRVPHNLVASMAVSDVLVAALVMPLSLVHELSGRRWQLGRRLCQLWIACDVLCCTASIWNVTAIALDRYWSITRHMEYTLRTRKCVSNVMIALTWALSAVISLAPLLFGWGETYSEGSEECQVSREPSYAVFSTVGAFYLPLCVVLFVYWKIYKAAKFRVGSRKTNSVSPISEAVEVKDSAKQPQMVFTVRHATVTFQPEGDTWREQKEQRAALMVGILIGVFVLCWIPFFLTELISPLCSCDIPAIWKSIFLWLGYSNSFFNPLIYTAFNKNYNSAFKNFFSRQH
SCN5A: Sodium channel protein type 5 subunit alpha (SCN5A, Homo sapiens, UniProt Q14524)
Sequence of UniProt Q8IWT6 (whole entry, unmodified, looked up): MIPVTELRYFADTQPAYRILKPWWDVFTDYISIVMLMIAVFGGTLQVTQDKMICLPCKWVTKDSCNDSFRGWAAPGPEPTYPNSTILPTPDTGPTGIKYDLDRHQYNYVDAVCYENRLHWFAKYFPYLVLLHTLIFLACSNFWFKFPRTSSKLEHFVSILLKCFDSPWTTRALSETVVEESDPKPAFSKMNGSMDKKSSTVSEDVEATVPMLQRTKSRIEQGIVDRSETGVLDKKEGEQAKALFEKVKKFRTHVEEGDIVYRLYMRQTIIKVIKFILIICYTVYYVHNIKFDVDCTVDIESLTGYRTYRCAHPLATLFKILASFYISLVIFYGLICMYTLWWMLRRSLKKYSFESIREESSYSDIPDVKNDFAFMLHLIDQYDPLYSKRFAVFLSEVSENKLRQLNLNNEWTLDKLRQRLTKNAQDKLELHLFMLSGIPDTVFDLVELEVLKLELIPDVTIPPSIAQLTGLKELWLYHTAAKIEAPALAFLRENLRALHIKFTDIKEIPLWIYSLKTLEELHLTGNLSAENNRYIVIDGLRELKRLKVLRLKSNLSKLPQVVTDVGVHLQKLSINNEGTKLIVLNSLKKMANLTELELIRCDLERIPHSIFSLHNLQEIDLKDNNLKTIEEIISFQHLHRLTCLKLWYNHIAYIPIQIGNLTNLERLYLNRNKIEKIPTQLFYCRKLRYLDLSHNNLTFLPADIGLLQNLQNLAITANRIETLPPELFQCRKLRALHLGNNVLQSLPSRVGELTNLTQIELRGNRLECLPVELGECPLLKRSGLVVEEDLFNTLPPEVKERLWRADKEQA
Sequence of UniProt Q14524 (whole entry, looked up): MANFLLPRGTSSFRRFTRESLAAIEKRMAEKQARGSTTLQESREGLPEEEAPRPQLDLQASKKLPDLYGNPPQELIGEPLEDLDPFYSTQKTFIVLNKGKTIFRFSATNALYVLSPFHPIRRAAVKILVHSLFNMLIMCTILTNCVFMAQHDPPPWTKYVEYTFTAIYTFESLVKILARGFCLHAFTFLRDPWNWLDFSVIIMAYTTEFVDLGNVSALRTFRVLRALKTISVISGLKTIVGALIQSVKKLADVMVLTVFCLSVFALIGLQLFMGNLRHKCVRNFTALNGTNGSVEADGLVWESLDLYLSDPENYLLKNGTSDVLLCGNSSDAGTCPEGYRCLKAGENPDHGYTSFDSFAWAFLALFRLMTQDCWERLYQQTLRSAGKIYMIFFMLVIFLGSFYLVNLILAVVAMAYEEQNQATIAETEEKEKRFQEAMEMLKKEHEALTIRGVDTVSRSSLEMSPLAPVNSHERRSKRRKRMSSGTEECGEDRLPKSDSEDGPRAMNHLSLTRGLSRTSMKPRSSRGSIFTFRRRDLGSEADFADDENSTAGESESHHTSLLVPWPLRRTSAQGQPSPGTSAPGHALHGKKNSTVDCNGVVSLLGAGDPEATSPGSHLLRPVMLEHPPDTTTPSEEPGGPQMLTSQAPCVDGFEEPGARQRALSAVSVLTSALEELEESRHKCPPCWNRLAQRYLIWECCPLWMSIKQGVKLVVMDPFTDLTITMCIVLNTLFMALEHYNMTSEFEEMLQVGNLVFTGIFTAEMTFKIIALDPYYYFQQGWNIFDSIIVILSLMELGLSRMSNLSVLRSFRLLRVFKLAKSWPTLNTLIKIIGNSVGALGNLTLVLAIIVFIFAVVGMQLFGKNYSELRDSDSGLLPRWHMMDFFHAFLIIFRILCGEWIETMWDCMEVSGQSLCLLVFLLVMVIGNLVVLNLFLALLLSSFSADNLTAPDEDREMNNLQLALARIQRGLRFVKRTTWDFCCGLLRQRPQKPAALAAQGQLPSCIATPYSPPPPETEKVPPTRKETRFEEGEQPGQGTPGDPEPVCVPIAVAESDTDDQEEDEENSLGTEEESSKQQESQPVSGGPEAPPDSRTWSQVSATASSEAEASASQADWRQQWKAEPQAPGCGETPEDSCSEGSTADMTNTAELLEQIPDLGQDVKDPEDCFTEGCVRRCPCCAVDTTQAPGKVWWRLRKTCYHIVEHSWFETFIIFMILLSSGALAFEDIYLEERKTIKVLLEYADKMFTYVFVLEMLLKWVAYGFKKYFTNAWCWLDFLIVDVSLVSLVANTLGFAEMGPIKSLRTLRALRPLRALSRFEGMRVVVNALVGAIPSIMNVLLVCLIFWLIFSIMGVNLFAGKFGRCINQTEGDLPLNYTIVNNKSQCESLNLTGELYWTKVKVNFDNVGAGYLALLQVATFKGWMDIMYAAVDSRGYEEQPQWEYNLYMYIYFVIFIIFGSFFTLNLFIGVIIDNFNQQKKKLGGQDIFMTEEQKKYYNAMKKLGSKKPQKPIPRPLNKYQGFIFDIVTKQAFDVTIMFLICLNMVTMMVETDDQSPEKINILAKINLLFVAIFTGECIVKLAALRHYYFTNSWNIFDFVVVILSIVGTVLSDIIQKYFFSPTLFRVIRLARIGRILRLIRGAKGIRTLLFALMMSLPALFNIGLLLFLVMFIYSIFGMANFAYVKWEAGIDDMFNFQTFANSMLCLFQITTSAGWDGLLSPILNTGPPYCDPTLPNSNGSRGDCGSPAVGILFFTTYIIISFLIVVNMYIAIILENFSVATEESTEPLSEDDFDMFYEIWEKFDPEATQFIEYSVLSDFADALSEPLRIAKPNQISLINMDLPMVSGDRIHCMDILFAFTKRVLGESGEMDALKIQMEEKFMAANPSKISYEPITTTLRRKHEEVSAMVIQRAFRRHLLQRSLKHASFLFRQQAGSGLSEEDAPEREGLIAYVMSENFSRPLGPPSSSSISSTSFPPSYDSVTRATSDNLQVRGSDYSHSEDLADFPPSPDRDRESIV
Sequence of UniProt Q63959 (whole entry, looked up): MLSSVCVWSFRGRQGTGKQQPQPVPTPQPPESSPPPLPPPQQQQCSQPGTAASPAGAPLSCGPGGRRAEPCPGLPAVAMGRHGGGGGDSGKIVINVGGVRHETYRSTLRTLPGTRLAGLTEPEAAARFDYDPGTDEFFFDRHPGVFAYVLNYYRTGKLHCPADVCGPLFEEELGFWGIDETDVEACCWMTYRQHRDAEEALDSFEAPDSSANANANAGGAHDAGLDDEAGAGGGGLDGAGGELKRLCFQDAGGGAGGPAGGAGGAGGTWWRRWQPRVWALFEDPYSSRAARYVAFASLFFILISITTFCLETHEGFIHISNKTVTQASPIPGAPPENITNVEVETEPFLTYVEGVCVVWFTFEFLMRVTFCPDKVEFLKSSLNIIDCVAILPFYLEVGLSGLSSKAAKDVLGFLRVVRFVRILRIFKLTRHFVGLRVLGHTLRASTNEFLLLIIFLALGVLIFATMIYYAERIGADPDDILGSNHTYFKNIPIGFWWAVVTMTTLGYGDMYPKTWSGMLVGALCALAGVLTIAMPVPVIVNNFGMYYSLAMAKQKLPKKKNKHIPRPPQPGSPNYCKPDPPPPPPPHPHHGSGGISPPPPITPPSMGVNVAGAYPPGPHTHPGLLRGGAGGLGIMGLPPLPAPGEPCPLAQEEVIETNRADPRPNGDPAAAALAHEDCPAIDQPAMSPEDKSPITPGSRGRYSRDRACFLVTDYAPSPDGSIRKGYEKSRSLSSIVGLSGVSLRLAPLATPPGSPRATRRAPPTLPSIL

SMILES	target	test	system	conditions	inhibition
COc1ccccc1N1CCN(CCCCN2CCc3ccccc3C2=O)CC1	DRD4	radioligand binding	–	concentration not given, together with: [3H]N-methylspiperone	100%
Cc1nn(-c2nc3c(F)cc(F)cc3s2)c(O)c1C(c1ccccc1C(=O)O)c1c(C)nn(-c2nc3c(F)cc(F)cc3s2)c1O	Cyclic GMP-AMP synthase, catalytic domain; with DNA (CGAS, Homo sapiens, UniProt Q8N884)	cGAS phase separation, inhibitor	–	0.625 µM	23.9%
COc1ccc([C@@H]2CC(=O)c3c(O)cc(O)cc3O2)cc1O	AMY2	enzyme activity, inhibitor	–	50 µM, together with: CNP-G3 substrate	29.9 ± 0.63%
COc1cc(Cl)c(C(=O)N[C@@H](CN[C@H]2CC[C@@H](N)CC2)Cc2ccc(C#N)cc2)cc1-c1ccc(CN[C@H](C)c2ccc(C)cc2)o1	Motilin receptor (MLNR, Homo sapiens, UniProt O43193)	agonist response, antagonist	human cells	10 µM, motilin antagonist	13%
C[C@H](CCC(=O)O)[C@H]1CC[C@H]2[C@@H]3C(=O)C[C@@H]4CC(=O)CC[C@]4(C)[C@H]3CC(=O)[C@]12C	TLR2 (Homo sapiens, UniProt O60603)	SEAP reporter gene, antagonist	HEK-Blue hTLR2	10 µM, together with: Pam3CSK4	> 90%
Cc1cc(-c2ccnc3[nH]cc(F)c23)cc(F)c1[C@@]1(O)[C@H](C)CN(C2CCS(=O)(=O)CC2)C[C@@H]1C	AMPK alpha1 and alpha2	ATP probe binding, KiNativ, refers to: Lys1 site	HEK293T cell lysate	0.1 µM	5.7%
Cc1cc(C(C)(C)C)ccc1OS(=O)(=O)Oc1cc(F)cc(C(=O)NO)c1	HDAC11	–	–	10 µM	53%
Cc1ccc(OC[C@@H]2CN(CCN3CCc4ccccc43)CCO2)cn1	HTR5A	radioligand binding	–	concentration not given, together with: [3H]LSD	-18.8%
CN(C(=O)n1cnc(-c2ccc[n+]([O-])c2)c1)C1CCCCC1	Histamine H2 receptor (Cavia porcellus, UniProt P47747)	binding	–	10 µM	-3.18%
O=C1N=C(N2CCCCN2)S/C1=C\c1ccc(F)cc1O	rat GABA receptor	radioligand binding	rat cerebral cortex	10 µM, together with: [3H]GABA	< 10%
O=C(NO)c1ccc(CN2CCCCc3ccccc32)c(F)c1	sigma-2 receptor	radioligand binding	–	10 µM	0%
O=C(/C=C/c1cccc(OS(=O)(=O)Oc2ccc(Oc3ccccc3)cc2)c1)NO	HDAC11	–	–	10 µM	8%
O=C(CN1CCO[C@@H](COc2ccccn2)C1)N1CCc2ccccc21	HTR5A	radioligand binding	–	concentration not given, together with: [3H]LSD	-19.1%
O=C(Nc1cccc2c(=O)cc(-c3nnn[nH]3)oc12)c1ccc(OCCCCc2ccccc2)cc1	LRRC8A/LRRC8C (Homo sapiens, UniProt Q8IWT6+Q8TDW0, M48D/T48D)	ion current, whole-cell patch clamp	HCT LRRC8-/- cells	10 µM, -100 mV, T48D/M48D heteromers	2.04% and 12.1% and 3.9%
CC[C@@H]1[C@H](F)C(=O)N[C@@H]1COc1nccc2cc(C(N)=O)c(OC)cc12	PRPF4B (Homo sapiens, UniProt Q13523)	ATP-site probe binding, inhibitor, ActivX ATP probe profiling	THP-1 cell lysate	0.04 mM, other probe site	16%
Clc1cncc(OC[C@@H]2CN(CCN3CCc4ccccc43)CCO2)c1	HTR5A	radioligand binding	–	concentration not given, together with: [3H]LSD	16.1%

SMILES	target	test	system	conditions	inhibition
O=C(NO)c1cccc(OS(=O)(=O)Oc2ccc(-n3cccc3)cc2)c1	HDAC11	–	–	10 µM	21%
Cc1cc2c(cc1N1C(=O)c3cccc4c(CCCO)ccc(c34)C1=O)n(C)c(=O)n2C (racemic)	Bromodomain-containing protein 2, BD2 (BRD2, Homo sapiens, UniProt P25440)	binding, BROMOscan binding	–	100 nM	72%
Ic1cccc2cnccc12	nicotinic acetylcholine receptor (human)	radioligand binding, inhibitor	–	10 µM	-3%
Cc1ccc(C(=O)Nc2ccc3ccccc3c2)o1	Voltage-gated potassium channel KCNC3 (Kcnc3, Mus musculus, UniProt Q63959)	ion current, inhibitor, whole-cell patch clamp	–	10 µM	0% and 1.87% and 9.42% and 5.13%
NC/C(=C\F)COc1cccc(Cn2c(=S)[nH]c(=O)c3[nH]cnc32)c1	SCN5A	peak current, inhibitor, patch clamp	human cells	10 µM, pulse 9	9.6% and 17.6%
CC(C)c1noc2ncc(C(=O)c3ccccc3O)cc12	SCN5A	ion current, inhibitor, whole-cell patch clamp	–	10 µM	9.76% and 10% and 11.2% and 3.6%
CCCCCCCCCCCCCCNC(=O)/C=C/c1ccc(O)c(O)c1	AMY2	enzyme activity	–	20 µM, together with: α-glucosidase present	43.8 ± 3.67%
COc1ccc2c(c1)C(=O)N(CCN1CCN(c3ccccc3OC)CC1)C2	DRD4	radioligand binding	–	concentration not given, together with: [3H]N-methylspiperone	97.2%
COc1cc(C(=O)NS(=O)(=O)c2ccccc2C)ccc1Cc1cn(C)c2ccc(NC(=O)OC3CCCC3)cc12	Volume-regulated anion channel subunit LRRC8C, part LRRC8A IL1 chimera (LRRC8C, Homo sapiens, UniProt Q8TDW0, M48D)	ion current, inhibitor, whole-cell patch clamp	HCT LRRC8-/- cells	1 µM, constitutively open channel, +100 mV	3.23% and 5.81% and 10.5% and 2.9% and 7.08% and -0.571%
O=C1c2ccccc2CCN1CCCCN1CCN(c2ccccn2)CC1	HTR5A	radioligand binding	–	concentration not given, together with: [3H]LSD	49.6%
CCc1oc2ccccc2c1C(=O)c1cc(Br)c(O)c(Br)c1	SLC22A12 (Homo sapiens, UniProt Q96S37)	urate uptake, inhibitor	HEK-293T cells	0.5 µM, 10 min, 37 °C, wild type, together with: 200 µM [14C]-urate	66%
O=C1c2ccccc2CCCN1CCCCN1CCN(c2ccccn2)CC1	HTR2B (Homo sapiens, UniProt P41595)	radioligand binding	–	concentration not given, together with: [3H]LSD	83.3%
O=c1cc(-c2ccccc2)oc2cc(O)c(O)c(O)c12	AMY2	enzyme activity, inhibitor	–	50 µM, together with: CNP-G3 substrate	64.04 ± 0.41%
C#Cc1cc(-c2cc(Nc3nc(N[C@@H](C)c4ccc(F)cn4)ncc3Cl)n[nH]2)ccc1C=O	PRKCI (Homo sapiens, UniProt P41743)	enzyme activity, inhibitor	–	0.2 µM	31%
COc1ccc2c(c1)CN(CCCN1CCN(c3ccccc3OC)CC1)C2=O	HTR5A	radioligand binding	–	concentration not given, together with: [3H]LSD	60%

Excerpt of the above:
SMILES	target	test	system	conditions	inhibition
COc1ccc([C@@H]2CC(=O)c3c(O)cc(O)cc3O2)cc1O	AMY2	enzyme activity, inhibitor	–	50 µM, together with: CNP-G3 substrate	29.9 ± 0.63%
CCCCCCCCCCCCCCNC(=O)/C=C/c1ccc(O)c(O)c1	AMY2	enzyme activity	–	20 µM, together with: α-glucosidase present	43.8 ± 3.67%
C#Cc1cc(-c2cc(Nc3nc(N[C@@H](C)c4ccc(F)cn4)ncc3Cl)n[nH]2)ccc1C=O	PRKCI (Homo sapiens, UniProt P41743)	enzyme activity, inhibitor	–	0.2 µM	31%
CN(C(=O)n1cnc(-c2ccc[n+]([O-])c2)c1)C1CCCCC1	Histamine H2 receptor (Cavia porcellus, UniProt P47747)	binding	–	10 µM	-3.18%
Cc1ccc(C(=O)Nc2ccc3ccccc3c2)o1	Voltage-gated potassium channel KCNC3 (Kcnc3, Mus musculus, UniProt Q63959)	ion current, inhibitor, whole-cell patch clamp	–	10 µM	0% and 1.87% and 9.42% and 5.13%
